{"data": "Measurements collected from several papers", "note": "Each numbered part is a random draw from the data of one study; scales do not carry over between parts. Several values in a cell are separate wells, animals, samples, runs or records.", "UniProt P62344, sequence (whole entry, looked up)": "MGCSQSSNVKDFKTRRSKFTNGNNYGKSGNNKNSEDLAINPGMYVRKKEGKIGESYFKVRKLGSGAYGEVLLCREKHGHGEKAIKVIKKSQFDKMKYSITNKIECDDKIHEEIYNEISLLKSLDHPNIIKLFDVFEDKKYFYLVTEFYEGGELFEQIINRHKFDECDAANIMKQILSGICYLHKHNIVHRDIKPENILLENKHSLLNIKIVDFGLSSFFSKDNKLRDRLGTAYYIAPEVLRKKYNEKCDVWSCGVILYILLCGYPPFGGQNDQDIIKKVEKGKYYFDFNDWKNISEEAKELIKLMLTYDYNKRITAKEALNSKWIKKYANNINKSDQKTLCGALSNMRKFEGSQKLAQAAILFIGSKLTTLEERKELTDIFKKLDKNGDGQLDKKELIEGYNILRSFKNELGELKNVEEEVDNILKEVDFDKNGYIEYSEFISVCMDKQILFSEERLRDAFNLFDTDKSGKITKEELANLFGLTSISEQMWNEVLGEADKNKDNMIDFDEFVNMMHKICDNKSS", "UniProt Q02750, sequence (whole entry, looked up)": "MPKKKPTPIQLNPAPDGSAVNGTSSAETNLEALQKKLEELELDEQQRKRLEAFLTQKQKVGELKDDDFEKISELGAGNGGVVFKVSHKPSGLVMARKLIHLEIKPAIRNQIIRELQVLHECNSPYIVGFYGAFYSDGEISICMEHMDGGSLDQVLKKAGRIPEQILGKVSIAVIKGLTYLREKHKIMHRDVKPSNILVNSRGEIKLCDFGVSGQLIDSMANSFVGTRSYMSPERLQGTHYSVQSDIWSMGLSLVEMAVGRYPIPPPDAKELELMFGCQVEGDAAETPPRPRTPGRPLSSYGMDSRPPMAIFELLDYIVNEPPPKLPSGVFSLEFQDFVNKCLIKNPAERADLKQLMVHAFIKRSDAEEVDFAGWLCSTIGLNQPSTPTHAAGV", "UniProt Q9UQB9, sequence (whole entry, looked up)": "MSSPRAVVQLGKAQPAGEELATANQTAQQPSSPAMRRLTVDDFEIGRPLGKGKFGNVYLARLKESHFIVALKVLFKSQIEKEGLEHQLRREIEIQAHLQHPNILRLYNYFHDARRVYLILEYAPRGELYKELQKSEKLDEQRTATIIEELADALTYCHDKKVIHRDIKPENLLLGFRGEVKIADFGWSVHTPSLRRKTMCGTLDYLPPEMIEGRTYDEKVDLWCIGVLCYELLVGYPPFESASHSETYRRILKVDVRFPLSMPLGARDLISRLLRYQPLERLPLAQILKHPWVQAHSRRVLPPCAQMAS", "UniProt Q9HBY8, sequence (whole entry, looked up)": "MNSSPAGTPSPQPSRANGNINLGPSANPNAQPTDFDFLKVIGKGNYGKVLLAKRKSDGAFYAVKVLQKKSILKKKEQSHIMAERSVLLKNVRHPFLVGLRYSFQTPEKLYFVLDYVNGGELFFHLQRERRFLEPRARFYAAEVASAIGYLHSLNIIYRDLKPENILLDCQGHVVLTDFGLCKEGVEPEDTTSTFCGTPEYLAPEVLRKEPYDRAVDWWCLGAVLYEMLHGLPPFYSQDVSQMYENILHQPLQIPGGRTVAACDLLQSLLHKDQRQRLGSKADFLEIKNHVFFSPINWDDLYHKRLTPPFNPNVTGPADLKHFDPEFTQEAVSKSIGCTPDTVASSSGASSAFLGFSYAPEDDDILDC", "UniProt Q5XXA6, sequence (whole entry, unmodified, looked up)": "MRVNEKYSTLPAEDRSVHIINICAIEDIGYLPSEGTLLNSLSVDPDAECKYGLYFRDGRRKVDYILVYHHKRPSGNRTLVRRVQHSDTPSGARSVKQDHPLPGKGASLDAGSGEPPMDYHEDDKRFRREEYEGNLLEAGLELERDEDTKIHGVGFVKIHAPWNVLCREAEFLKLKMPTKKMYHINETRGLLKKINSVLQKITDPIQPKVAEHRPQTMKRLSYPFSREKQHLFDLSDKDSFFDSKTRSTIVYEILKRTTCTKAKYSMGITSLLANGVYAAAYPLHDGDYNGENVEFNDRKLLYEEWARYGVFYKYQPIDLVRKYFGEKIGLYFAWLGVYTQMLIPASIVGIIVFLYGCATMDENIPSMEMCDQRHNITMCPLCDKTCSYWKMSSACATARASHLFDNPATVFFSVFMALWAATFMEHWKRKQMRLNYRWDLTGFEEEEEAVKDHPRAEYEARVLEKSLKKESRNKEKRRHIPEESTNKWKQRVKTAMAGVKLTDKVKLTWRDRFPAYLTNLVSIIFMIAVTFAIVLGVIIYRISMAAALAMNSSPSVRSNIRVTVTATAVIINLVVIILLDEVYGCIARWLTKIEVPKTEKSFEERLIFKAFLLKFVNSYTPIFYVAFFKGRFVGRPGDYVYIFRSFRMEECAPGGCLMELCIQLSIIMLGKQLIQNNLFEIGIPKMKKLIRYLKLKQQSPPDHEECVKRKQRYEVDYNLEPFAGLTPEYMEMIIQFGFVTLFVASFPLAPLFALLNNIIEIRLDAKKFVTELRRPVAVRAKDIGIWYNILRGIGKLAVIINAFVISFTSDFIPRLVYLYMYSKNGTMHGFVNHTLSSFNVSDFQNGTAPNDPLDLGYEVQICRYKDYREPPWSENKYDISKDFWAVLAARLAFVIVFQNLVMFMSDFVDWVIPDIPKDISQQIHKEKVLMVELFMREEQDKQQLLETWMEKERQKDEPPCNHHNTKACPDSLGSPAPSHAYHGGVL", "UniProt Q8TDC3, sequence (whole entry, looked up)": "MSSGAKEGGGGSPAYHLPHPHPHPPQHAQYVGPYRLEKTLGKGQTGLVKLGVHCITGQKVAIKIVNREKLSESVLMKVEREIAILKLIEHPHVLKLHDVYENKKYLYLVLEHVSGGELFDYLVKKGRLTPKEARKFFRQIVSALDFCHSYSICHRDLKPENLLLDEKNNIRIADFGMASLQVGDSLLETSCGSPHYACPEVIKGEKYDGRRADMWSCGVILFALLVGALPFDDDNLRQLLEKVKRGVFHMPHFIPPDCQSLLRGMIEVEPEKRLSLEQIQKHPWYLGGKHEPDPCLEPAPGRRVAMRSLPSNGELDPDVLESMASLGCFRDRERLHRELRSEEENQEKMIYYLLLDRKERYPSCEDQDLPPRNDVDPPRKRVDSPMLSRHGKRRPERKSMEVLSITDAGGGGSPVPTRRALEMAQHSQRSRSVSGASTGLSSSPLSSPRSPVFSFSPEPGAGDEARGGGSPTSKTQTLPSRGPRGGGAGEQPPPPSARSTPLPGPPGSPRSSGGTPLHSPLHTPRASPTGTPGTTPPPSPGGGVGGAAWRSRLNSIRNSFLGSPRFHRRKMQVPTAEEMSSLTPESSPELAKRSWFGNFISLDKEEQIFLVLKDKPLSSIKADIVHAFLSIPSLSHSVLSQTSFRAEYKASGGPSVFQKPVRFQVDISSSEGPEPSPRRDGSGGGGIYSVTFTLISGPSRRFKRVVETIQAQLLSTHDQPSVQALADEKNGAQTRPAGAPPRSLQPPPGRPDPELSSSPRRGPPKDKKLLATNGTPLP", "UniProt P11362, sequence (whole entry, looked up)": "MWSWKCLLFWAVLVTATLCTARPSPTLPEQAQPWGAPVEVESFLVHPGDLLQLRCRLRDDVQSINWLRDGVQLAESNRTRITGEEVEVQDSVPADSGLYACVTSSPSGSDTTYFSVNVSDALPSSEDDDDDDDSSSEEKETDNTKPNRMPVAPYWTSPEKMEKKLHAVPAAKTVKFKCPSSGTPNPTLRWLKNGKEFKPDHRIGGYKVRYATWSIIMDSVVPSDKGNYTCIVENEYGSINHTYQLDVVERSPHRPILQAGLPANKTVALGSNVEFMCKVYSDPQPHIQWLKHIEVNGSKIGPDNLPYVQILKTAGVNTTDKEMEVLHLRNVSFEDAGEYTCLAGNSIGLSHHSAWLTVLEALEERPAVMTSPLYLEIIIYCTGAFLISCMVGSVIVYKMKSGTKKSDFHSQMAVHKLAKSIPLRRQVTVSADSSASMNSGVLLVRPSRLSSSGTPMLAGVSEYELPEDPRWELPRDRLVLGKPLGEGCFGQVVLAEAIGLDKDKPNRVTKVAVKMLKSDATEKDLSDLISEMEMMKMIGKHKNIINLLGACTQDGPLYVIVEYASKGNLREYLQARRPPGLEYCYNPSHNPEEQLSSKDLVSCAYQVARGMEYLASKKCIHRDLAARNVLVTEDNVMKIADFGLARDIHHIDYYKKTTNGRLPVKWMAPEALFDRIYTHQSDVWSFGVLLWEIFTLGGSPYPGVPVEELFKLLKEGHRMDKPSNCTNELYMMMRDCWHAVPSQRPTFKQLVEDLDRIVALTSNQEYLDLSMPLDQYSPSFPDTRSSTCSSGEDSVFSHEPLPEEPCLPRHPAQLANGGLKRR", "UniProt Q9NR20, sequence (whole entry, looked up)": "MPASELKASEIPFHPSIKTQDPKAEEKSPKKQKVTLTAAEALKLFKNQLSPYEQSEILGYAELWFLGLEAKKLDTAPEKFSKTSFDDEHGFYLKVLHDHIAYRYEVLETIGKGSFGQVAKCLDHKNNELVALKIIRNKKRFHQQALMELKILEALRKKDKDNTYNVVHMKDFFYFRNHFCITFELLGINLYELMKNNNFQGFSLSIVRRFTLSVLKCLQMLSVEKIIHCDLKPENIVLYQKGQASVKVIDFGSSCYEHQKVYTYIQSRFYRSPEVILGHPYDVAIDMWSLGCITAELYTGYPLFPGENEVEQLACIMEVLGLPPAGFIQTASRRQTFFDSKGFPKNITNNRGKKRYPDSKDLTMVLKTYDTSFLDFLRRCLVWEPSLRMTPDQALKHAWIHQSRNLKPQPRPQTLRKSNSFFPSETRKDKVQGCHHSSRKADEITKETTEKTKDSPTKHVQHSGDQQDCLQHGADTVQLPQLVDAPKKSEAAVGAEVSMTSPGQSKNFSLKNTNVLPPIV"}
{"data": "Sample 1", "cell line": "mouse MPNST tumor cells", "method": "high-content immunofluorescence imaging", "refers to": "nuclear SOX9", "tested at": "10 µM", "time": "12 h", "setting": "mean of 2 replicates", "baseline": "DMSO control", "reading": "higher = more nuclear SOX9"}
{"SMILES": "CCOC(=O)[C@H](Cc1ccc([N+](=O)[O-])cc1)NC(=O)c1ccccc1", "nuclear SOX9 intensity": "103 % of DMSO"}
{"SMILES": "Nc1ncnc2c1ncn2[C@@H]1O[C@H](CO)[C@@H](O)[C@@H]1O", "nuclear SOX9 intensity": "106 % of DMSO"}
{"SMILES": "NC[C@H]1CC[C@H](C(=O)O)CC1", "nuclear SOX9 intensity": "106 % of DMSO and 105 % of DMSO"}
{"SMILES": "CC(C)(C)NCC(O)COc1cccc2c1CC(O)C(O)C2 (stereo not drawn)", "nuclear SOX9 intensity": "111 % of DMSO"}
{"SMILES": "COc1ccccc1N1CCN(CCCNc2cc(=O)n(C)c(=O)n2C)CC1", "nuclear SOX9 intensity": "107 % of DMSO"}
{"SMILES": "CCCn1c(=O)c2nc(C34CC5CC(CC3C5)C4)[nH]c2n(CCC)c1=O", "nuclear SOX9 intensity": "114 % of DMSO"}
{"SMILES": "Cc1c[nH]c2ncnc(-c3ccc(NC(=O)N(CCO)c4ccccc4)cc3)c12", "nuclear SOX9 intensity": "82.1 % of DMSO"}
{"SMILES": "Clc1ccc(COC(Cn2ccnc2)c2ccc(Cl)cc2Cl)c(Cl)c1 (stereo not drawn)", "nuclear SOX9 intensity": "159 % of DMSO and 105 % of DMSO"}
{"data": "Sample 2", "Structure (SMILES)": "O=C(Nc1cnn(-c2csc(C(=O)NC3COC3)c2)c1)Nc1c(F)cccc1Cl", "effect on": "enzyme activity", "tested at": "5 µM", "baseline": "untreated control"}
{"target": "Serine/threonine-protein kinase Sgk2 (SGK2, Homo sapiens, UniProt Q9HBY8)", "remaining activity [%]": 88.5}
{"target": "Serine/threonine-protein kinase PLK2 (PLK2, Homo sapiens, UniProt Q9NYY3)", "remaining activity [%]": 99.5}
{"target": "Serine/threonine-protein kinase BRSK1 (BRSK1, Homo sapiens, UniProt Q8TDC3)", "remaining activity [%]": 99.3}
{"target": "Dual specificity mitogen-activated protein kinase kinase 1 (MAP2K1, Homo sapiens, UniProt Q02750)", "remaining activity [%]": 107}
{"target": "Dual specificity tyrosine-phosphorylation-regulated kinase 4 (DYRK4, Homo sapiens, UniProt Q9NR20)", "remaining activity [%]": 93.5}
{"target": "Aurora kinase C (AURKC, Homo sapiens, UniProt Q9UQB9)", "remaining activity [%]": 58.1}
{"target": "Fibroblast growth factor receptor 1 (FGFR1, Homo sapiens, UniProt P11362)", "remaining activity [%]": 93.2}
{"target": "Tyrosine-protein kinase JAK2 (JAK2, Homo sapiens, UniProt O60674)", "remaining activity [%]": 88.1}
{"data": "Mixed results"}
{"Structure (SMILES)": "C=CCc1ccc(O)c(-c2ccc(O)c(CC=C)c2)c1", "target": "Anoctamin-1 (ANO1, Homo sapiens, UniProt Q5XXA6, del476-501)", "assay": "chloride current, inhibitor, whole-cell voltage clamp", "setting": "3 µM, wild type, with: 300 nM Ca2+", "how to read": "baseline: maximum", "endpoint": "remaining current", "value": "~70%"}
{"Structure (SMILES)": "CN(c1ccnc(CNc2nc(Nc3ccc4c(c3)CC(=O)N4)ncc2C(F)(F)F)n1)S(C)(=O)=O", "target": "Calcium-dependent protein kinase 1 (CDPK1, Plasmodium falciparum, UniProt P62344)", "assay": "cell-free assay, competition with immobilised ligand", "setting": "1 µM", "endpoint": "remaining binding", "value": "84%"}
{"note": "Repeated from above (sample 2):"}
{"target": "Serine/threonine-protein kinase BRSK1 (BRSK1, Homo sapiens, UniProt Q8TDC3)", "remaining activity [%]": 99.3}
{"target": "Dual specificity mitogen-activated protein kinase kinase 1 (MAP2K1, Homo sapiens, UniProt Q02750)", "remaining activity [%]": 107}
